Assay results pooled from the literature.
Protocols differ between the studies behind these lines. ± marks the error that the study gave.
Mode: inhibitor
relA residues 53-446: relA, residues 53-446 (Mycobacterium tuberculosis, UniProt P9WHG9)
Sequence of UniProt P9WHG9 (53-446, looked up): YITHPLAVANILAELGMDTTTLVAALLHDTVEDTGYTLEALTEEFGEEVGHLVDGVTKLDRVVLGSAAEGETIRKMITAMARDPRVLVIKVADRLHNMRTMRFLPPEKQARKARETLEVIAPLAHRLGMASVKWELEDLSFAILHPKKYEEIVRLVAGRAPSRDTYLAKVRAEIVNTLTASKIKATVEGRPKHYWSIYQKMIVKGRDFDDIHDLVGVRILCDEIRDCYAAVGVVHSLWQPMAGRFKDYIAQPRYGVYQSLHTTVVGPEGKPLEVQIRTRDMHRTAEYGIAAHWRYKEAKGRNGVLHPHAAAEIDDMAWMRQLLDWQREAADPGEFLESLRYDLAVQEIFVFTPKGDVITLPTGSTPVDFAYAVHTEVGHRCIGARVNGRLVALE
tmk: Thymidylate kinase (tmk, Mycobacterium tuberculosis, UniProt P9WKE1)
Sequence of UniProt P9WKE1 (whole entry, looked up): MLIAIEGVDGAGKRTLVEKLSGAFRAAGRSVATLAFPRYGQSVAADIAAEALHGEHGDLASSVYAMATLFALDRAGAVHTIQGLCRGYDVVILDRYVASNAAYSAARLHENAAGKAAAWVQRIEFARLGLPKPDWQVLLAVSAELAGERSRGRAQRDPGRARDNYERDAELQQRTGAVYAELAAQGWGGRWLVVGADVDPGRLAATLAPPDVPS
Sequence of UniProt Q12809 (whole entry, looked up): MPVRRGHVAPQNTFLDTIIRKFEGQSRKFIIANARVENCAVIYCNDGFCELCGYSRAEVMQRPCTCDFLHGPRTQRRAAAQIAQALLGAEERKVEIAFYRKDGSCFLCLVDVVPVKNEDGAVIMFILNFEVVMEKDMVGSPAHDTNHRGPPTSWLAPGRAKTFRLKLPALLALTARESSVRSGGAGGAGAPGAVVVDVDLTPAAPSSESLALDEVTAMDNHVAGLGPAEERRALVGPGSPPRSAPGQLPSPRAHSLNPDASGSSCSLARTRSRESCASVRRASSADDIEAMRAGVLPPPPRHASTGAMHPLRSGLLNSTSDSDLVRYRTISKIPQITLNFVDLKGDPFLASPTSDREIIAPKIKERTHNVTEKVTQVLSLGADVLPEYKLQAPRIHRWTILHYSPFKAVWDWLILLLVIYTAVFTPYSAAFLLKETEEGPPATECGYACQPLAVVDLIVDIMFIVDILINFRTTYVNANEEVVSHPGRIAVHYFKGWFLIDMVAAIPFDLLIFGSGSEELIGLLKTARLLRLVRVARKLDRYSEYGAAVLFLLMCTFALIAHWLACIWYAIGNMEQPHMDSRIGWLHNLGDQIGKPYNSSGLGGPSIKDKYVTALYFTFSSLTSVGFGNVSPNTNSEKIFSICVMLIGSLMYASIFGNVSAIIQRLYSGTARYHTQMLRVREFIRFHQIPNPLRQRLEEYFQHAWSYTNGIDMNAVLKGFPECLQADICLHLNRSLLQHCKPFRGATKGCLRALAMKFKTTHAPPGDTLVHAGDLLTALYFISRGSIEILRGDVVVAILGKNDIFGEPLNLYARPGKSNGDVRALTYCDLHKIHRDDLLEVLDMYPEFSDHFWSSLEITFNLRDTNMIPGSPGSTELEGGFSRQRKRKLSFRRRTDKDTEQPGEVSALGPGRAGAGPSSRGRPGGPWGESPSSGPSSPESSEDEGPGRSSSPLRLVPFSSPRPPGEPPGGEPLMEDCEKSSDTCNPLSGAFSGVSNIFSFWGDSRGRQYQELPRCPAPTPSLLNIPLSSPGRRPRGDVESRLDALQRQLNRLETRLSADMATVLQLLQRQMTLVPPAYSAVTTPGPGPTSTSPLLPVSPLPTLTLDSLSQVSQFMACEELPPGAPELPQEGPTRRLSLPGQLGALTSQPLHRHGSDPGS
Sequence of UniProt P9WPC9 (whole entry, looked up): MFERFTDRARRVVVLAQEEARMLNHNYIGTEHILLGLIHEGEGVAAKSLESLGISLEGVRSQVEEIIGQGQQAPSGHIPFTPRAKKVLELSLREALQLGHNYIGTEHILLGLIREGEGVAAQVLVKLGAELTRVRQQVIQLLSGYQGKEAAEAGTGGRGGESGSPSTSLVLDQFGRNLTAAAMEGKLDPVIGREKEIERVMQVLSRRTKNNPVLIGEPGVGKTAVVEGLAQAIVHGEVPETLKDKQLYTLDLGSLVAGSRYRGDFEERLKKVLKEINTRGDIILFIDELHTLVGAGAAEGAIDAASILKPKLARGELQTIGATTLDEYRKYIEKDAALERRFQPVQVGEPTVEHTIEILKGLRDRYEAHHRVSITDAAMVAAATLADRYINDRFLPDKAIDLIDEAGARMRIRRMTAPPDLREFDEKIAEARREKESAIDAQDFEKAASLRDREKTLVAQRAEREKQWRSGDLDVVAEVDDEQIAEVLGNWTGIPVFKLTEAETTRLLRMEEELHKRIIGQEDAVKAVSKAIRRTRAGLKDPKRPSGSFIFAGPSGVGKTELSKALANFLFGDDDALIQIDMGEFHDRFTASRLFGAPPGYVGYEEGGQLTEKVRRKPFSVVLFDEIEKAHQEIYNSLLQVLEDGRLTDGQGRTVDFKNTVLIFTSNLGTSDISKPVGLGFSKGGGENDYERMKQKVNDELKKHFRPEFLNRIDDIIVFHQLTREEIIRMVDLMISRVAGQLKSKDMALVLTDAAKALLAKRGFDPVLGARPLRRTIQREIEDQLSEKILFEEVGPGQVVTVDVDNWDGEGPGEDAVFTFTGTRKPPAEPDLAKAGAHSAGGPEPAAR
Sequence of UniProt P22001 (whole entry, looked up): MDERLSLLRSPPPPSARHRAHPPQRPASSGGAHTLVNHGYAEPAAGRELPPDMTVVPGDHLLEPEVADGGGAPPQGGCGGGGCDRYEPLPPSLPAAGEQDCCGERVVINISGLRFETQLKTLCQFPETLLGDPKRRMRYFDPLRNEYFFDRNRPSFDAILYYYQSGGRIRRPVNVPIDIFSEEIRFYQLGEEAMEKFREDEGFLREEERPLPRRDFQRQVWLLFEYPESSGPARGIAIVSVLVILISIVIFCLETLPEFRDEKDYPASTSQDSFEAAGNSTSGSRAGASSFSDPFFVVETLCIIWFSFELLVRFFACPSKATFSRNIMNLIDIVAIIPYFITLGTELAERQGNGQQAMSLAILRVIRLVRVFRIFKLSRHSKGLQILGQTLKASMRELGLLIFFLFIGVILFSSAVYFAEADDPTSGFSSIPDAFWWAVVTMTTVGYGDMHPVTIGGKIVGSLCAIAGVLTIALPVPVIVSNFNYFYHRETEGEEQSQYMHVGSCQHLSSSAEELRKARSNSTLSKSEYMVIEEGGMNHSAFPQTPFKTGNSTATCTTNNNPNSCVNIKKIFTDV
Sequence of UniProt P07711 (whole entry, looked up): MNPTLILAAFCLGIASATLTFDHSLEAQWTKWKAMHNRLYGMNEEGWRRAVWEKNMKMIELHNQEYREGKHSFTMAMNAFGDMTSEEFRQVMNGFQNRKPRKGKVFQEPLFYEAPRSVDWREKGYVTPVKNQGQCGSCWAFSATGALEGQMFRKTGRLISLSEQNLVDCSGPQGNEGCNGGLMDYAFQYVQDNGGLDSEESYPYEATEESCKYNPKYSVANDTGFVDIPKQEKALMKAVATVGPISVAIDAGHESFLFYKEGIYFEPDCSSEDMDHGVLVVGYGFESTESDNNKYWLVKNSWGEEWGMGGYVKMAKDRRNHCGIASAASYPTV

SMILES	target	assay	test system	setting	IC50 [µM]
CCCCCc1cc(O)c2c(c1)OC(C)(C)c1cc(O)c(C)cc1-2	rat intestinal maltase		rat intestinal acetone powder	10 min, 37 °C, together with: maltose 10 mM	100 ± 20
CC1=CC(C=C(Cl)c2ccc(C(=O)O)cc2)C2(C(=O)O)C=CC(CCOC(=O)c3ccc(Oc4ccccc4)cc3)CC2C1 (stereo not shown)	clpC1 (Mycobacterium tuberculosis, UniProt P9WPC9)	enzyme activity			5.9
CC[C@H](C)[C@@H]1NC(=O)[C@@H](NC(=O)CNC(=O)[C@@H](N)CCCCN)CSSC[C@@H]2NC(=O)[C@@H]3CSSC[C@H](NC(=O)[C@H](CCC(N)=O)NC(=O)[C@H](CC(C)C)NC(=O)[C@@H]4CCCN4C(=O)[C@H](CCCNC(=N)N)NC2=O)C(=O)N[C@@H](CCCCN)C(=O)NCC(=O)N2CCC[C@H]2C(=O)N[C@@H](CO)C(=O)N2CCC[C@H]2C(=O)N[C@@H](CCCCN)C(=O)N[C@@H](CCC(N)=O)C(=O)N[C@@H](CCCCN)C(=O)N[C@@H](CCCCN)C(=O)N[C@H](C(=O)N[C@H](C(=O)N[C@@H](CCCCN)C(=O)N[C@H](C(=O)O)C(C)C)[C@@H](C)O)CSSC[C@H](NC(=O)[C@H](Cc2c[nH]c4ccccc24)NC(=O)[C@H](CCCCN)NC(=O)CNC(=O)[C@H](CCC(=O)O)NC(=O)[C@H](CCCCN)NC1=O)C(=O)N1CCC[C@H]1C(=O)N[C@@H](CCCCN)C(=O)N[C@@H]([C@@H](C)O)C(=O)N[C@@H](C)C(=O)N1CCC[C@H]1C(=O)N3	KCNA3 (Homo sapiens, UniProt P22001)	ion current, patch clamp		pH 7.4	0.381
N=C1C(=Cc2ccc(SCc3ccc(Cl)cc3)o2)C(=O)N=C2SC(c3cccs3)=NN12	relA residues 53-446	enzyme activity, fluorescence polarization			5.01
COc1cc2c(cc1-n1ccnc1)C[C@H]1[C@H]3CCCC[C@@]23CCN1C	KCNH2 (Homo sapiens, UniProt Q12809)	radioligand binding			23.2
CC(C)c1cc(N)c2cc(NC(=O)C(=O)Nc3ccc4nc(C(C)C)cc(N)c4c3)ccc2n1	relA residues 53-446	enzyme activity, fluorescence polarization			10
CCCc1cc(O)c2c(c1)OC(C)(C)c1ccc(C)cc1-2	rat intestinal maltase		rat intestinal acetone powder	10 min, 37 °C, together with: maltose 10 mM	380 ± 10
CCOC(=O)C1=C(C)NC(=S)NC1c1ccc([N+](=O)[O-])o1 (racemic)	tmk	enzyme activity, absorbance			0.579
CC(C)CC(C(=O)N1CC2(CC1C#N)C(=O)Nc1ccccc12)N(C)C(=O)c1cc2c(F)cc(F)c(F)c2[nH]1 (stereo not shown)	Procathepsin L (CTSL, Homo sapiens, UniProt P07711)	enzyme activity			> 100
Cc1cc(/C=C/c2ccc(C(=O)O)cc2)ccc1OCCc1scnc1C	relA residues 53-446	enzyme activity, fluorescence polarization			15.8
CCCCCc1cc(O)c2c(c1)OC(C)(C)C1=C2C(OC)C(C)(O)CC1 (stereo not shown)	rat intestinal maltase		rat intestinal acetone powder	10 min, 37 °C, together with: maltose 10 mM	700 ± 50
COCCOC(=O)N1CCC2(CCCN(Cc3ccc(Cl)c(Cl)c3)C2)C1 (stereo not shown)	relA residues 53-446	enzyme activity, fluorescence polarization			12.6
CCOC(=O)C1=C(C)NC(=NN=C2C(=O)Nc3ccccc32)NC1c1ccc(F)cc1 (stereo not shown)	tmk	enzyme activity, absorbance			0.524

Repeated from above:
SMILES	target	assay	test system	setting	IC50 [µM]
CC(C)c1cc(N)c2cc(NC(=O)C(=O)Nc3ccc4nc(C(C)C)cc(N)c4c3)ccc2n1	relA residues 53-446	enzyme activity, fluorescence polarization			10
